# Experimental data of several laboratories.
# Numbered parts are unrelated; each lists some results of a single study. Substitutions count along the parent as printed.

# Series 1 — target: CCND3, cyclin fold, Cln2 fusion (human); method: yeast growth competition, sequencing; sample: yeast; notes: weak parent motif; baseline: not given; reading: higher = stronger binding
# Starting sequence: SAMHD1 docking peptide (human); ASKSRVQLFKDDP
Substitution,normalised enrichment score
AFKSRVQLFKDDP [S2F],0.152
ASKSRVHLFKDDP [Q7H],0.244
ASKSKVQLFKDDP [R5K],-0.0935
ASKSGVQLFKDDP [R5G],0.0131
ASKSRVQLPKDDP [F9P],0.334
ASKSPVQLFKDDP [R5P],-0.38
ASVSRVQLFKDDP [K3V],-0.125
ASKSRVQLFKDNP [D12N],-0.026
ASFSRVQLFKDDP [K3F],0.00288
ASKSRTQLFKDDP [V6T],0.0282
ASKSRVQLFKEDP [D11E],0.224
ASKSRVQHFKDDP [L8H],-0.0863
ASKSRVQLFQDDP [K10Q],0.0977
ASKIRVQLFKDDP [S4I],0.159
ASKSRVQLFKDEP [D12E],0.616
ASKSRVQLFNDDP [K10N],-0.0024
ASKSRVQCFKDDP [L8C],0.0638
AGKSRVQLFKDDP [S2G],0.0192
ASKSFVQLFKDDP [R5F],-0.00233
ASKSRVCLFKDDP [Q7C],0.0797
ASKSRVQLFKWDP [D11W],0.087
AQKSRVQLFKDDP [S2Q],-0.0191

# Series 2 — method: DHFR PCA, deep sequencing; sample: yeast; added: (+)-ABA 0.0091 µM; baseline: wild-type fitted maximum; reading: higher = stronger binding
# Target: ABI1, truncated, D143A, DHFR fusion (Arabidopsis thaliana)
# Notes: methotrexate growth selection, single substitutions
# Starting sequence: PYL1, truncated, DHFR fusion (Arabidopsis thaliana); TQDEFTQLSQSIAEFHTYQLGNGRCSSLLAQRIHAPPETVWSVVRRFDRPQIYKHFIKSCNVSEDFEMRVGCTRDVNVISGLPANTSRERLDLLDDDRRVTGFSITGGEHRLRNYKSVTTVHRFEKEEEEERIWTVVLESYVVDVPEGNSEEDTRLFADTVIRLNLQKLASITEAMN
Substitution,relative binding score
M68A,-2.35%
F56I,2.84%
F47L,-3.1%
D96M,-4.63%
E128F,7.45%
R163I,-0.373%
R24H,3.01%
V76S,0.964%
N149D,12.8%
T39P,-8.36%
T173D,-1.09%
H110P,69.9%
A170M,-1.69%
C60E,7.11%
S171V,17.6%
R123E,45.7%

# Series 3 — method: EMSA with sequencing; molecule type: double-stranded DNA, one strand shown; sample: in vitro; tested at: 10 and 20 nM; baseline: negative control set to 0; reading: higher = stronger binding
# Target: Hepatocyte nuclear factor 3-alpha (Foxa1, Mus musculus, UniProt P35582, residues 1-468, full length assumed)
# Notes: whole designed probe, mean of two concentrations, ends assumed
# Construct (chain): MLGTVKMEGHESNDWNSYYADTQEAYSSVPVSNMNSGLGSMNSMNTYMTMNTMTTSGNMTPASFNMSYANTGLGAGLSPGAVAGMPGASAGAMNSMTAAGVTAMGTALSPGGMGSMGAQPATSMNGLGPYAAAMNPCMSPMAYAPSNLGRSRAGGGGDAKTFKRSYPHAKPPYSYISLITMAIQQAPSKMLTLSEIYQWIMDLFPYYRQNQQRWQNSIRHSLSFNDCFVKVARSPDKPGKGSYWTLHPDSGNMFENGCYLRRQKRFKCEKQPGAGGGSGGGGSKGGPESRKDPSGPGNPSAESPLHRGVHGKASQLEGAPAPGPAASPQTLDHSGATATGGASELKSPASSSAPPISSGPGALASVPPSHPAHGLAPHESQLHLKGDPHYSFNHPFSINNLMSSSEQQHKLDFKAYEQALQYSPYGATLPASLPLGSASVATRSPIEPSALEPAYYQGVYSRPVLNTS
Strand,normalised bound fraction
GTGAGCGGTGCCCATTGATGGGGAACATCTTCCCCCTCTTCCTTGCCCCACCAGCTCCATTCGCCCGGTTATTTGCAGATAGGAAAATAAATAAAGCCGGCATTCGTTAACCCTCTTCTGGCGCAAACTGCTGTTTGCTCTGGATGAATCATGGTCCTTTGGCGACGCCAGGCTCCGGGAGAGCAAAGCACCGTGTCAGGGCCATGATCCGGGGTGGCCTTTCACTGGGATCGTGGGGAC,0.329 ratio
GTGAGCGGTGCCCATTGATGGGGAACAAATTCTGCAATTACATCACCTCATCTGCACCTGATGAATAAAAATAAATTATTTCAAAGTTTTAAAAAGTGCAACAATGATTTGCAAGACAGAGTAATCTTACAGTAAAGGTTTTAATTCCTGAGACTTAAGTTGGATAGGTCTAGATTTTCATCAAGGAAAACAAAAGTATGATGTTAAATTCAAATTCTATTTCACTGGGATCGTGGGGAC,-0.0124 ratio
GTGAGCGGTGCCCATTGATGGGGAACATCTTCCCCCTCTTCCTTGCCCCACCAGCTCACCTACGGGGGTTATTTGCAGATAGGAAAATAAATAAAGCCGGCATTCGTTAACCCTCTTCTGGCGCAAACTGCTGTTTGCTCTGGATGAATCATGGTCCTTTGGCGAGGCGTGGCTCCGGGAGAGCAAAGCACCGTGTCAGGGCCATGATCCGGGGTGGCCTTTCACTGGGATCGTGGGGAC,0.338 ratio
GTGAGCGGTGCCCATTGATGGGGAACTAAAAATGCAACTATAAGTTAAGTCTAACTAATAAAAGTGTTCATTAGATGAGAACGAGAACGTCTTATAGAAAAATAGATGGAAATACTATGTAAACAATGAGTTAAAATCGCAGATTGAAGTGAAAAAAATACTAGCTAGATGTAAGACATGAACCTAGAGCAAATGAAATGCAGAAAGTTAAAAAGAGAATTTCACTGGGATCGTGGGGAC,0.455 ratio
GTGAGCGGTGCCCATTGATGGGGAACGTGTGTGCGCGCGCGTGTGTGTGTGTTTTCTTAAGCCGGGCTATTCAAACCCTGCTGCAATTCTCCGGTACAATGATTCATAAGGGGCATAATGCAAATAAACGGATTGCAAACGGCGCGGTTCGCGCACTTTGCAGCCGGCCCGGTGGAGCAGCCAGTGCCGGATTTCTCCCTTTTTTTGCAGATCTGCAGATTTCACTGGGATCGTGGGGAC,0.393 ratio

# Series 4 — method: RNA Bind-n-Seq; molecule type: RNA; sample: in vitro; tested at: 365 nM; baseline: no-protein control; reading: higher = stronger binding
# Target: RNA binding protein fox-1 homolog 2, RRM domain, GST-SBP tag (RBFOX2, Homo sapiens, UniProt O43251-10, residues 100-194)
# Notes: natural RNA segment, single round, ends assumed
# Target sequence (chain): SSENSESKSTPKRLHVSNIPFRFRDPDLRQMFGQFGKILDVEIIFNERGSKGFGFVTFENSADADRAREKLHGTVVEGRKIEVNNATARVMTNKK
Strand,RBNS enrichment (R)
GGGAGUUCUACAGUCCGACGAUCAGAACAAGUUGCUUAUAAUUGAGAGUGAGAGCAUGCCUUAAAUGUCAUGAUGGUAUGUGAAUAUGUGUGUAUGUUGCAAACAGGAAAUGCACUUGUAAACAUACGACAUGUGGAAUUCUCGGGUGCCAA,7.52
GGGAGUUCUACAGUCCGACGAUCGAGUGCCUGCCUCGGCUGUGGCACUUCCAGGUUCGACUGAAUCAAGCAUCUGAAGACUGGGUUUUUUUGUUGUUGUUGUUCCCCUUACAGACAAAAUGAAGACUAUCAUGUGGAAUUCUCGGGUGCCAA,2.44
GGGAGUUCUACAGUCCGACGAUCUGCUCCAACUGCCUGUCUCCAGGUCCCUGGGUGAAUGUGGCCAUCCAGCAGAGAUGCUAGUGGGGCUUCCGCUGUGUCAUCAGACCUCCAGAGCACCUGAUUGGCCCAAAUGGAAUUCUCGGGUGCCAA,0.195
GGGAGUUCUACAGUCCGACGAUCCUUUUGUUCUCAGCUUCUGCCAUCUGUGACUACUGAUAUCCUGGAUGGACACCUUGCUGGACUUGAAGUCCGCUAGUUGGACUUUGCCUAGGGCUUUCAUCUUGCCUUGCUGGAAUUCUCGGGUGCCAA,0.508
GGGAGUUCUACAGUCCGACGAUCCUCCCUCCAUAGCCAAUCUGCAUCUCGCUCUGGAUGCCCACUCCUGACCUGCCACGCCCUACAUGGUCCCCUGUGUAGCUUGCUAGCCUUGGGGGCCUGUCACUUGCCAAUGGAAUUCUCGGGUGCCAA,3.57
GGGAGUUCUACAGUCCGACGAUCAGAGCCUCUGGACGGCCUUGGCAACAGCAAAAUCAUGGGACAACACCUCUCUCCACGGAAAGGUCACAGUGGACAGCCCGGGCAGUAGGAUGCAGCCCCAGAGGCUGGUGUGGAAUUCUCGGGUGCCAA,0.956
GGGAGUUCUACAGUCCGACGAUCGCAUGGCCUUCCCUUCCUCUAGACAGAGGAGGGCUCCCAGCAGCCUUUCUAGUUUGGCAGUGCGACUGAGAGAAGAUUCCACACAGGAACAUCUUUCUUCUCCAUCACUCUGGAAUUCUCGGGUGCCAA,0.271
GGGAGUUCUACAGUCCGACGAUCGUUGAACUAAGUUAUGGAUUUGUGGUCUUUCAAAUACAUGACGCCUUUAGUAUGCCACACUGAAAUGAAUAAGAAGUCUUCUGAAACUGGGAACUUCAUAACAUUGAAGGUGGAAUUCUCGGGUGCCAA,0.361

# Series 5 — method: protein binding microarray; molecule type: double-stranded DNA, one strand shown; sample: in vitro; tested at: not given; baseline: not given; reading: higher = stronger binding
# Target: Histone acetyltransferase KAT6A, winged helix 1, GST fusion (KAT6A, Homo sapiens, UniProt Q92794, residues 1-85)
# Notes: 8-mer, flanks averaged, mean of 2 arrays, mostly near background
# Residues (chain): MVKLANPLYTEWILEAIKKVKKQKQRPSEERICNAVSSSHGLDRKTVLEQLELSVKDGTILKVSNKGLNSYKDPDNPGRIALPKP
Strand,E-score
AGATTTAT,0.0255
CGCCTGGA,0.014
CTGTATCA,-0.055
AGTCAAAA,-0.2
CGTGGACA,0.139
TATTTTAA,-0.157
TATTAGGA,-0.256
GGGCCGAA,0.111
TGTTTAAA,-0.0981
ATATGTCA,-0.0799
GGTACTAC,0.121
ATTCACGG,0.16
CATCGCCA,0.125
CCAGAAAC,-0.135
GCCGTTGA,0.255
ACATGAAT,-0.232
GAGACCCC,0.00805
CCATATTC,-0.148
CACGACGC,0.23
TGCTTGAA,-0.106
CGTTAACA,0.13
AGACTGTA,-0.0734
CAATCAAA,-0.124
AAAATCGA,-0.244
TGAACTAA,-0.122
